# Assay results collected from several papers.
# Each line is one published result; not all experiments were run side by side. “And” joins repeats or separate records; there may be more than shown. ± marks the error that the study gave.
SMILES,organism,test,test system,conditions,scale,endpoint,value
CC[C@@H](C)[C@@H](NC(=O)[C@@H](CCCCN)NC(=O)[C@@H](CCCCN)NC(=O)[C@@H](CC(C)C)NC(=O)[C@@H](Cc1c[nH]c2ccccc12)NC(=O)CN)C(=O)NCC(=O)N[C@H](CCCCN)C(=O)N[C@H](CCCCN)C(=O)N[C@@H](C(=O)N[C@H](CCC(=O)O)C(=O)N[C@H](CCCNC(=N)N)C(=O)N[C@@H](C(=O)NCC(=O)N[C@H](CCC(N)=O)C(=O)N[C@H](Cc1c[nH]cn1)C(=O)N[C@@H](C(=O)N[C@H](CCCNC(=N)N)C(=O)N[C@H](CC(=O)O)C(=O)N[C@H](C)C(=O)N[C@@H](C(=O)N[C@@H](C(=O)N[C@H](CCC(N)=O)C(=O)N[C@@H](C(=O)N[C@@H](C(=O)NCC(=O)N[C@@H](C(=O)N[C@H](C)C(=O)N[C@H](CCC(N)=O)C(=O)N[C@H](CCC(N)=O)C(=O)N[C@H](C)C(=O)N[C@H](C)C(=O)N[C@H](CC(N)=O)C(=O)N[C@@H](C(=O)N[C@H](C)C(=O)N[C@H](C)C(=O)N[C@@H](C(=O)N[C@H](CC(C)C)C(=O)N[C@H](CCCCN)C(N)=O)[C@H](C)O)C(C)C)C(C)C)[C@H](C)CC)[C@H](C)O)[C@H](C)CC)[C@H](C)O)[C@H](C)O)C(C)C)[C@H](C)CC,Klebsiella pneumoniae,broth microdilution,"DSM 30104, CAMHB",,,MIC,> 1020 µg/mL
Cn1nc(-c2ccc(C(F)(F)F)cc2)nc2c(=O)n(C)c(=O)nc1-2,SARS-CoV-2 USA_WA1/2020,,Vero E6,"concentration not given, 72 h",,inhibition of cytopathic effect,51.4%
Cn1cnc(Cn2c(=O)[nH]/c(=N\c3cc4cn(C)nc4cc3Cl)n(Cc3cc(F)c(F)cc3F)c2=O)n1,Murine coronavirus,"viral replication, qPCR",L929,48 h,,IC50,0.93 µM
CC(C)CC(C(=O)N1CC2(CC1C#N)C(=O)Nc1ccccc12)N(C)C(=O)c1cc2c(F)cc(F)c(F)c2[nH]1 (stereo not drawn),SARS-CoV-2,"viral replication, infectious virus",Vero E6,0.004 µM,,inhibition,42.4%
N#Cc1ncn(C2OC(CO)C(O)C2O)c1C#N (stereo not drawn),Severe acute respiratory syndrome coronavirus,viral replication,Vero,48 h,,IC50,46 µg/mL
C[N+]1=C2C(c3ccc(Cl)cc3)=[N+]([O-])c3ccccc3N2CCC1,Clostridium perfringens,microbial growth,,,,MIC50,32 µg/mL
Cc1ccc(N2CC(N3CCC(C)(O)CC3)C2)cc1C(=O)NC1(c2ccc3c4c(cccc24)CC3)CC1,SARS-CoV-2,viral replication,"Vero C1008, wild type",0.01715 µM,,inhibition,0%
CN1CCN(C(=O)N[C@@H](Cc2ccccc2)C(=O)N[C@H](/C=C/S(=O)(=O)c2ccccc2)CCc2ccccc2)CC1,Reston ebolavirus,pseudovirus entry,HEK293T,RESTV,,IC50,0.00337 ± 0.00029 µM
CC(C)Oc1ccc(-n2cnc3cc(/C=C\c4ccc(C(C)(C)O)cc4)ccc32)cc1,Lassa mammarenavirus,viral replication,Huh-7,concentration not given,,Emax,97.5 ± 3.26%
Nc1nc(Nc2ccc(Cl)cc2)nn1S(=O)(=O)c1ccc2ccccc2c1,Powassan virus,viral replication,BHK-21,,,EC50,> 7.9 µM
C[N+]1=C2C(c3ccccc3)=[N+]([O-])c3ccccc3N2CCC1,Clostridium perfringens,microbial growth,,,,MIC50,32 µg/mL
Cc1ccc(NS(=O)(=O)c2c(C(=O)N3CCCCCC3)c(C)n(C)c2C)c(Cl)c1,Vaccinia virus,viral infection,HaCaT,"0.046 µM, 36 h",relative to: untreated,infection,111% and 117% and 83.4%
O=C(C=Cc1ccc(O)c(O)c1)OC1CC(O)(C(=O)O)CC(OC(=O)C=Cc2ccc(O)c(O)c2)C1O (stereo not drawn),Severe acute respiratory syndrome coronavirus 2,"cytopathic effect, inhibitor",Vero C1008,100 µM,,inhibition,8.33%
CC(C)c1ccc2c(c1)CC[C@H]1[C@](C)(C(=O)OCC#CCN3CCCC3)CCC[C@]21C,SARS-CoV-2 pseudovirus,,BHK-21-hACE2,20 µM,,infected cells,decreased
O=C(O)c1ncn(COCCOCc2ccccc2)c1C(=O)O,Mammarenavirus lassaense,viral replication,Vero,48 h,,IC90,> 50 µg/mL
COC(=O)c1ccccc1NC(=O)Cc1cn(OC)c2ccccc12,HIV-1,viral replication,RT K103N/V108I,,relative to: wild type,EC50 fold change,4.07 ± 0.08 fold
COC(=O)c1ncn(C2OC(COC(C)=O)C(OC(C)=O)C2OC(C)=O)c1C(=O)OC (stereo not drawn),Zaire ebolavirus,"viral replication, inhibitor",Vero,72 h,,IC50,19 µg/mL
O=[N+]([O-])c1ccc(-n2nc(-c3ccccc3)cc2-c2ccc(F)cc2)c([N+](=O)[O-])c1,Japanese encephalitis virus,plaque,SA14-14-2,"5 µM, 72 h",relative to: control,viral titre reduction,~59%
N#Cc1ncn(COCCBr)c1C#N,Severe acute respiratory syndrome coronavirus,viral replication,Vero,48 h,,IC50,17 µg/mL
C[N+]1=C2C(c3ccc([N+](=O)[O-])cc3)=[N+]([O-])c3ccccc3N2CCC1,Clostridium butyricum,,,,,MIC,≤ 0.06 µg/mL
O=S(=O)(O)c1c2ccccc2c(-c2c3nc(c(-c4c5ccccc5c(S(=O)(=O)O)c5ccccc45)c4ccc([nH]4)c(-c4c5ccccc5c(S(=O)(=O)O)c5ccccc45)c4nc(c(-c5c6ccccc6c(S(=O)(=O)O)c6ccccc56)c5ccc2[nH]5)C=C4)C=C3)c2ccccc12,vaccinia virus,,WR,"25 µg/mL, 16 h",,virus titre,1.2e+06 PFU/mL

# For quick reference, copied from above:
SMILES,organism,test,test system,conditions,scale,endpoint,value
Cn1nc(-c2ccc(C(F)(F)F)cc2)nc2c(=O)n(C)c(=O)nc1-2,SARS-CoV-2 USA_WA1/2020,,Vero E6,"concentration not given, 72 h",,inhibition of cytopathic effect,51.4%
